Results from different studies.
A part holds a random share of what one study measured. Changes are numbered by the printed parent chain.

Set 1 — technique: RNA Bind-n-Seq; form: RNA; sample: in vitro; tested at: 365 nM; reference: no-protein control; direction: higher = stronger binding
Target: RNA binding protein fox-1 homolog 2, RRM domain, GST-SBP tag (RBFOX2, Homo sapiens, UniProt O43251-10, residues 100-194)
Notes: natural RNA segment, single round, ends assumed
Residues (chain): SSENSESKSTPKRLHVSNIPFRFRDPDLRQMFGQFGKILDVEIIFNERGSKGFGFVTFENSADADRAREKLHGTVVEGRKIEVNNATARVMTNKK
`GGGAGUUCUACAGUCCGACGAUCGUCACCCCAGACACCGCCCCUCACUUCAUGUACUGGACGGGAGCCGUCCGUCCAUCUGUCCCUGCUGGUCUCUGUCUAGAGAGUGCUGUUCGGGAUCUGCUCCUUCUGUCUGGAAUUCUCGGGUGCCAA`: “RBNS enrichment (R)” 0.421.
`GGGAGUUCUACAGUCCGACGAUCUGACUGAGCAAUAUGCCUCCUUGUAUUAUAAAAUCUUUCUGAUAAUGCAUUAGAAGGUUUUUUUGUCGAUUAGUAAAAGUGCUUUCCAUGUUACUUUAUUCAGAGCUAAUUGGAAUUCUCGGGUGCCAA`: “RBNS enrichment (R)” 0.327.
`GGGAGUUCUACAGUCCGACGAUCAUUUUGGCACCAGCGUCAAGACAAAUAAUAUCCUCUCCCAUUAUUUUCAUAAGUAACACAGAUUCCCUGAUUUUUAAAAACUAAAAAUACAGCUAAACCUUUCUUAUGUAUGGAAUUCUCGGGUGCCAA`: “RBNS enrichment (R)” 0.254.
`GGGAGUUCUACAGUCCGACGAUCUGUUAACCGACUAUAUACUGAAAGUUCUGUGUCCGACAUAGAGCAGCGUUAUGGUGGGAGCCGCUUCCUGUUCUGUGAACCCCAGGCAGGCUUGACUUCCUAUGGUGUUAUGGAAUUCUCGGGUGCCAA` — result for “RBNS enrichment (R)”: 0.258.
Under “RBNS enrichment (R)”, `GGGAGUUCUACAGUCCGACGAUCUCGAGGAUGCCGGCGACGAGACUCUGACGUGGACCCUGAGCUGCUGAGGUACUUGCUAGGGCGGAUCCUCACCGGAAGUUCGGAGCCAGAGGCUGCUCCUGCCCCGCGCCUGGAAUUCUCGGGUGCCAA` is recorded as 0.465.
`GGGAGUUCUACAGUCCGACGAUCGACCUUAAAGUUAUUGAGUUUAAGCUACAAAUUGUAACGUCAUUACUGGACAUGUCAGCAUCAACCCUCUCAAAAUAGCUUGGUCACUUUAUGAAGGGGCGUUUUAAAGUUGGAAUUCUCGGGUGCCAA`: “RBNS enrichment (R)” 0.431.
For `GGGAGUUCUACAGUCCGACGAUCCAAACCUUUUCAGCACUUCUCUCAGAGCAAAUGGAAACACACAGUAAGUAGCUUUCUGACUACAUUAUUUUCUGGUCACUUUUAAAGAAAGUUUACAACCUGUUCUGAAAUGGAAUUCUCGGGUGCCAA`, “RBNS enrichment (R)” read 0.365.
Under “RBNS enrichment (R)”, `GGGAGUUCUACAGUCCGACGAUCGAGUAGGGGUGGGGACAAGGUACUUUCCCUCUCUCUGCCUUGUUUAUUUUGUACUGUAAUGAAUGUGAGUCACUCAGCUGCUUACCUGAACAUAACCUUAUGCUGCCCUUUGGAAUUCUCGGGUGCCAA` is recorded as 0.611.

Set 2 — target: CCNB1, cyclin fold, Cln2 fusion (human); technique: yeast growth competition, sequencing; sample: yeast; notes: strong parent motif; reference: not given; direction: higher = stronger binding
Starting sequence: PKMYT1 docking peptide (human); SFEPRNLLSLFED
For `SFEFRNLLSLFED [P4F]`, “normalised enrichment score” read -0.0473.
`SFEPRNLLLLFED [S9L]` — result for “normalised enrichment score”: 0.78.
`SFEPRNLLSLTED [F11T]`: “normalised enrichment score” 0.0516.
For `SFEPRPLLSLFED [N6P]`, “normalised enrichment score” read 0.0226.
For `SFEPRNLLSLFEE [D13E]`, “normalised enrichment score” read 1.6.
For `SFEPRNLLSLFEM [D13M]`, “normalised enrichment score” read 0.642.
Under “normalised enrichment score”, `SFEPRNLLCLFED [S9C]` is recorded as 0.919.
`SFEPRNLLSLFER [D13R]` — result for “normalised enrichment score”: 0.49.
`SFEPRNLLSSFED [L10S]` — result for “normalised enrichment score”: 0.142.
For `SFEPANLLSLFED [R5A]`, “normalised enrichment score” read 1.23.
`SFEPCNLLSLFED [R5C]`: “normalised enrichment score” 1.29.
`SCEPRNLLSLFED [F2C]`: “normalised enrichment score” 0.887.
`SFEPRNLLSCFED [L10C]` — result for “normalised enrichment score”: 0.475.
Under “normalised enrichment score”, `NFEPRNLLSLFED [S1N]` is recorded as 1.36.
Under “normalised enrichment score”, `SFEPRNQLSLFED [L7Q]` is recorded as -0.352.
For `SFELRNLLSLFED [P4L]`, “normalised enrichment score” read 0.138.
`SFEPRNLLSMFED [L10M]` — result for “normalised enrichment score”: 1.21.
`SFEPRNLLSLFKD [E12K]` — result for “normalised enrichment score”: -0.222.
`SFEPRTLLSLFED [N6T]`: “normalised enrichment score” -0.222.
Under “normalised enrichment score”, `SFCPRNLLSLFED [E3C]` is recorded as 1.09.
Under “normalised enrichment score”, `SVEPRNLLSLFED [F2V]` is recorded as 0.208.
For `SFEPRNNLSLFED [L7N]`, “normalised enrichment score” read -0.0288.
For `SSEPRNLLSLFED [F2S]`, “normalised enrichment score” read -0.096.

Set 3 — technique: aptamer microarray, sandwich; form: DNA with 2'F-ANA; sample: in vitro; tested at: 200 nM; added: Cy3 exosite-II aptamer, 400 nM; direction: higher = stronger binding; strand: GGTTGGTGTGGTTGG
Target: Prothrombin, mature alpha-thrombin (F2, Homo sapiens, UniProt P00734)
Notes: whole 15-mer aptamer, many near background
For `2'F-ANA at 1 3 5 7 10 12 14`, “mean fluorescence intensity” read 43.9 a.u.
`2'F-ANA at 1 3 4 6 7 8 10 11 14` — result for “mean fluorescence intensity”: 53.9 a.u.
`2'F-ANA at 3 5 10 12 13 15`: “mean fluorescence intensity” 60.8 a.u.
`2'F-ANA at 1 2 3 4 7 8 12 13 15` — result for “mean fluorescence intensity”: 392 a.u.
For `2'F-ANA at 2 3 10 14`, “mean fluorescence intensity” read 346 a.u.
Under “mean fluorescence intensity”, `2'F-ANA at 2 3 4 7 8 10 11 12 14 15` is recorded as 174 a.u.
`2'F-ANA at 2 3 4 6 7 8 9 12 14 15`: “mean fluorescence intensity” 261 a.u.
`2'F-ANA at 3 7 8 9 11 13 15` — result for “mean fluorescence intensity”: 967 a.u.
`2'F-ANA at 1 2 4 6 7 9 11 14 15`: “mean fluorescence intensity” 47.8 a.u.
`2'F-ANA at 3 4 6 7 8 10` — result for “mean fluorescence intensity”: 290 a.u.
`2'F-ANA at 1 3 4 5 6 7 8 9 12 14`: “mean fluorescence intensity” 48.9 a.u.
`2'F-ANA at 1 3 6 7 11 12 15` — result for “mean fluorescence intensity”: 384 a.u.
For `2'F-ANA at 2 3 4 8 10 12 13 14 15`, “mean fluorescence intensity” read 173 a.u.
For `2'F-ANA at 4 5 8 11 13 14`, “mean fluorescence intensity” read 50.5 a.u.
`2'F-ANA at 1 5 9 11`: “mean fluorescence intensity” 52.4 a.u.
For `2'F-ANA at 1 3 5 7 8 9 13 14`, “mean fluorescence intensity” read 46.8 a.u.
`2'F-ANA at 1 4 5 7 14`: “mean fluorescence intensity” 45.9 a.u.
For `2'F-ANA at 1 2 3 4 6 7 10 13 14 15`, “mean fluorescence intensity” read 91.2 a.u.
`2'F-ANA at 1 2 3 9 10 11 12 14` — result for “mean fluorescence intensity”: 54 a.u.
`2'F-ANA at 2 3 8 9 10 13 14 15` — result for “mean fluorescence intensity”: 284 a.u.
Under “mean fluorescence intensity”, `2'F-ANA at 2 3 5 8 9 10 11 12 13 14 15` is recorded as 50.2 a.u.
`2'F-ANA at 1 2 3 5 6 7 9 10 14 15`: “mean fluorescence intensity” 44.7 a.u.
`2'F-ANA at 1 2 4 8 9 10 11 12 13 14`: “mean fluorescence intensity” 54.6 a.u.
For `2'F-ANA at 1 2 3 4 6 7 8 10 14 15`, “mean fluorescence intensity” read 52.2 a.u.

Set 4 — technique: protein binding microarray; form: double-stranded DNA, one strand shown; sample: in vitro; tested at: not given; reference: not given; direction: higher = stronger binding
Target: Histone acetyltransferase KAT6A, winged helix 1, GST fusion (KAT6A, Homo sapiens, UniProt Q92794, residues 1-85)
Notes: 8-mer, flanks averaged, mean of 2 arrays, mostly near background
Construct (chain): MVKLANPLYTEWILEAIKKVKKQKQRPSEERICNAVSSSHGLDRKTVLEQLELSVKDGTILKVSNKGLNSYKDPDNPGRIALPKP
`TAGCGGCA` has an E-score of 0.399.
`CCACTACA` gave an E-score of -0.186.
`AGGGCGGA` has an E-score of 0.183.
`AGTGCCCG` gave an E-score of 0.156.
With `ACGTAAGG` the E-score was -0.0982.
With `AGCGTTCG` the E-score was 0.00873.
The E-score of `CCTAGGGC` is reported as -0.0285.
`ACCGGAGT` gave an E-score of 0.178.
`GATGAAGC` gave an E-score of -0.0235.
`AATCCGCA` has an E-score of 0.175.
The E-score of `GTACACAC` is reported as 0.0516.
The E-score of `GGTGTTTA` is reported as 0.136.
`AATGGCCT` has an E-score of -0.0148.
The E-score of `CTCTCGGA` is reported as -0.00446.
For `CTAAAATA`, the E-score was -0.0882.
`GTCAGCAC` has an E-score of 0.081.
For `AATCACGT`, the E-score was -0.0209.
`CTTCCTAC` has an E-score of -0.1.
The E-score of `GAGTGCCC` is reported as -0.148.
`ACGACAAA` has an E-score of -0.192.
`GACTGCGA` has an E-score of 0.0826.
`CCCTATCG` has an E-score of -0.0708.
With `ACTCAGTG` the E-score was -0.312.
